Published values gathered from unrelated publications.
Every numbered part comes from another study and shows a few of its results, in no order. Changes are numbered by the printed parent chain.
Chain of UniProt P35626 (whole entry, looked up): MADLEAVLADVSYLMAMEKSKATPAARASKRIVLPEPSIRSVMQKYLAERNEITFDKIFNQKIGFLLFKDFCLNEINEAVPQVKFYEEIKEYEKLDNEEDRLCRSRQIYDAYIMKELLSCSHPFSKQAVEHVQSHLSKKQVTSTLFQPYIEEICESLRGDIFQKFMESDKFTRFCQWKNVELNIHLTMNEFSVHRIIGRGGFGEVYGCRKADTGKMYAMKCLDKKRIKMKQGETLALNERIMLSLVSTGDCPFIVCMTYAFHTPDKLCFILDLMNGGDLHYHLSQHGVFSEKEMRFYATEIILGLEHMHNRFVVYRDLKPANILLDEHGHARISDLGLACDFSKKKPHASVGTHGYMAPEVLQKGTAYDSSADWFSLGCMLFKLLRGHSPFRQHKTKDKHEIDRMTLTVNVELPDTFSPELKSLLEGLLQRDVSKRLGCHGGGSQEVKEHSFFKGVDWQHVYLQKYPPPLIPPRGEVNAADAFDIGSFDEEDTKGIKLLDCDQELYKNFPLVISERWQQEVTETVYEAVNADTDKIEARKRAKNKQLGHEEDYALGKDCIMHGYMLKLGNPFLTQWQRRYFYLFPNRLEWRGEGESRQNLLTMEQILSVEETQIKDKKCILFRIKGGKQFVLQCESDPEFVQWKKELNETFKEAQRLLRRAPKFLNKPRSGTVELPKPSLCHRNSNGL
Chain of UniProt Q15418 (whole entry, looked up): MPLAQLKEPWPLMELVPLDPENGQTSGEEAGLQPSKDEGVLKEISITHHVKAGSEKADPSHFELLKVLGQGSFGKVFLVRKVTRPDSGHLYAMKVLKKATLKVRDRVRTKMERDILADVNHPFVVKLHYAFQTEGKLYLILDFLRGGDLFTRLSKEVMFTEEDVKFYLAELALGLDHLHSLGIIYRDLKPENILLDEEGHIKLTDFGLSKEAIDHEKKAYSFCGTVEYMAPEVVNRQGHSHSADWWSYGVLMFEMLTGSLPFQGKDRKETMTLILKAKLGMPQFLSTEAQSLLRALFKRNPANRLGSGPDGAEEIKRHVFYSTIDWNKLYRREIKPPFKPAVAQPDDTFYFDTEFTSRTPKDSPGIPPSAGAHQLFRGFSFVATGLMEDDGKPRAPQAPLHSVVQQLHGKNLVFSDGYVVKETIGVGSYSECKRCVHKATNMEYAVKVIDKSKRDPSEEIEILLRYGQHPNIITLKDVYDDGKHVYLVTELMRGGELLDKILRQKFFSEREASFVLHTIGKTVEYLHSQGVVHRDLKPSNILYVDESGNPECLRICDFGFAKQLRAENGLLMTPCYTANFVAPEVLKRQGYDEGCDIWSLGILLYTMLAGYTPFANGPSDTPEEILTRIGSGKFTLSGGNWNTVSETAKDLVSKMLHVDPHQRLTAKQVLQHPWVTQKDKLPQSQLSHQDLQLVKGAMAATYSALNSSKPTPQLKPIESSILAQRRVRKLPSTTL
Chain of UniProt P37173 (whole entry, looked up): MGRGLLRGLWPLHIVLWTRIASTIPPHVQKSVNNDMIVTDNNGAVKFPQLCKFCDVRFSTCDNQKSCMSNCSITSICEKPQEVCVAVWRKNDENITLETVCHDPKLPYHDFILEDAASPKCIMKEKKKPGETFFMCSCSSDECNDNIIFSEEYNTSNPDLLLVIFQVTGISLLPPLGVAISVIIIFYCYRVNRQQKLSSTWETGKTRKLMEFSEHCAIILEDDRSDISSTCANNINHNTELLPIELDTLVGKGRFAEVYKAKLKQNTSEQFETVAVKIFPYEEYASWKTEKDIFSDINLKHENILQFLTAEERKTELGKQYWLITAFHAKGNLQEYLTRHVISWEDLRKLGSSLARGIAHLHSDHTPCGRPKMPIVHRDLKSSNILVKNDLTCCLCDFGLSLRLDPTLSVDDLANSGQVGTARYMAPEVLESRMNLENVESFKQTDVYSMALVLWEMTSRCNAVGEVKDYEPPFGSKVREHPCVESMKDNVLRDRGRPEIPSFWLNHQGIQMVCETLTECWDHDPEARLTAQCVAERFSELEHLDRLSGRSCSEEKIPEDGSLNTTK
Chain of UniProt Q9UHD2 (whole entry, looked up): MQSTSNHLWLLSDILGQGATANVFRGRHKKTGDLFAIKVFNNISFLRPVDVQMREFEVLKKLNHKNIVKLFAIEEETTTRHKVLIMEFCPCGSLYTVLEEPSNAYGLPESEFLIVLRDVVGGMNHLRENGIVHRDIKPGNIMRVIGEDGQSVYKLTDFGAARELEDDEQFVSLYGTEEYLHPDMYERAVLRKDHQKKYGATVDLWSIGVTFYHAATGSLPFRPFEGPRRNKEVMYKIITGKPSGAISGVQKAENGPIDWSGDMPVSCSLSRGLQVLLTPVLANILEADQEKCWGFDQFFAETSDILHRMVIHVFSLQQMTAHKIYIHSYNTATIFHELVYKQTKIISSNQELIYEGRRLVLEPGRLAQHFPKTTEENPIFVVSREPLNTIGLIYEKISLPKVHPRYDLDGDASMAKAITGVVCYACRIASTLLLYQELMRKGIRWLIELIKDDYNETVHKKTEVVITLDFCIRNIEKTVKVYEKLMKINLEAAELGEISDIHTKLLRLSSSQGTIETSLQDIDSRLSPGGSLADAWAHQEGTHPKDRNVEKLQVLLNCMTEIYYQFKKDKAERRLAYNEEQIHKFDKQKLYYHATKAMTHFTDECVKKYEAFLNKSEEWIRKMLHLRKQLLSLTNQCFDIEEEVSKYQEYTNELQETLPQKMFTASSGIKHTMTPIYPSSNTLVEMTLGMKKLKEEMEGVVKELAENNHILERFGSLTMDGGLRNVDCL
Chain of UniProt P53355 (whole entry, looked up): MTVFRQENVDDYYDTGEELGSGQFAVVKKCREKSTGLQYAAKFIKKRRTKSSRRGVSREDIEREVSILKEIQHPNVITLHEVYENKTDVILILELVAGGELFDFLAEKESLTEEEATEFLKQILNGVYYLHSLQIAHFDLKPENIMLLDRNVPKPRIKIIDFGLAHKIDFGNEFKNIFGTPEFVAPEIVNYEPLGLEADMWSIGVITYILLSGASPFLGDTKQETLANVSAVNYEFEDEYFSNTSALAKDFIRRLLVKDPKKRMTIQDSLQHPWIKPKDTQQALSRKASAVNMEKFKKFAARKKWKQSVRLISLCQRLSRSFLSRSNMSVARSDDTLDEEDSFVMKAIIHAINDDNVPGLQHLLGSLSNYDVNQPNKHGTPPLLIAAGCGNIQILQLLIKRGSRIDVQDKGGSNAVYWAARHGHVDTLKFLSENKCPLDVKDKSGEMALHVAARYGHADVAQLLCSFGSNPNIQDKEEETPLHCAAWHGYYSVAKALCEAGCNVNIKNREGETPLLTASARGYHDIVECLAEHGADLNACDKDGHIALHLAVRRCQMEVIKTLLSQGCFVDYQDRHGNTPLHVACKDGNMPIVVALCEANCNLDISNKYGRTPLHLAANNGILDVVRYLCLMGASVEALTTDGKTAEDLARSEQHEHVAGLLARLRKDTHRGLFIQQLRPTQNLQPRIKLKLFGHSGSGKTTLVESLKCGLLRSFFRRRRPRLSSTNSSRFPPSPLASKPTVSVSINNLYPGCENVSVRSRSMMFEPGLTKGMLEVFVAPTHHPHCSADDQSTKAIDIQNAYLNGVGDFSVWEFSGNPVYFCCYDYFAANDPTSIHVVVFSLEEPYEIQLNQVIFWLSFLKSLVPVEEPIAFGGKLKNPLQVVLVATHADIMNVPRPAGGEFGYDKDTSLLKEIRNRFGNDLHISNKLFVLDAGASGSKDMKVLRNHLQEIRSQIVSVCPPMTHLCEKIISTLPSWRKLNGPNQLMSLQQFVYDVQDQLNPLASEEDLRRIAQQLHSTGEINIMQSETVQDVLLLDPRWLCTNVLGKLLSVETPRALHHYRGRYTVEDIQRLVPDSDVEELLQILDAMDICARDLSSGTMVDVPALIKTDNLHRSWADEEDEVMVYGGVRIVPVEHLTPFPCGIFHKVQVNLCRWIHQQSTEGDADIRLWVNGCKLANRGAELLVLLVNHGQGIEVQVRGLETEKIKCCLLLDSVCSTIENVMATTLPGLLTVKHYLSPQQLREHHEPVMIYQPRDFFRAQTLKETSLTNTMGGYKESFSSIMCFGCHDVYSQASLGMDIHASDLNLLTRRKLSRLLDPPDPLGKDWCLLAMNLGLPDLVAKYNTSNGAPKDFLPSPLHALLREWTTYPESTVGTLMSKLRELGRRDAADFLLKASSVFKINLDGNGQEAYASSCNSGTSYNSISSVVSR
Chain of UniProt Q9UIK4 (whole entry, looked up): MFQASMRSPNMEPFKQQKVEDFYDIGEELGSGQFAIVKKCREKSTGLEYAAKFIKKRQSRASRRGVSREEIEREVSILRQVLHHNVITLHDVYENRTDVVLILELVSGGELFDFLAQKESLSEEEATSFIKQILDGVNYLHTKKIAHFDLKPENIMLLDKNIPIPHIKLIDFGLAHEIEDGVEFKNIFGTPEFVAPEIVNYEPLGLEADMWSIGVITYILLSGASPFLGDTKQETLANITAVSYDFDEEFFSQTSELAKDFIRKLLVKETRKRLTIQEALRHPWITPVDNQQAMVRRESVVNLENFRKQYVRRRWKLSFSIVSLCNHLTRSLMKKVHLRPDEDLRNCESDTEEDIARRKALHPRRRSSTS
Chain of UniProt Q8N5S9 (whole entry, looked up): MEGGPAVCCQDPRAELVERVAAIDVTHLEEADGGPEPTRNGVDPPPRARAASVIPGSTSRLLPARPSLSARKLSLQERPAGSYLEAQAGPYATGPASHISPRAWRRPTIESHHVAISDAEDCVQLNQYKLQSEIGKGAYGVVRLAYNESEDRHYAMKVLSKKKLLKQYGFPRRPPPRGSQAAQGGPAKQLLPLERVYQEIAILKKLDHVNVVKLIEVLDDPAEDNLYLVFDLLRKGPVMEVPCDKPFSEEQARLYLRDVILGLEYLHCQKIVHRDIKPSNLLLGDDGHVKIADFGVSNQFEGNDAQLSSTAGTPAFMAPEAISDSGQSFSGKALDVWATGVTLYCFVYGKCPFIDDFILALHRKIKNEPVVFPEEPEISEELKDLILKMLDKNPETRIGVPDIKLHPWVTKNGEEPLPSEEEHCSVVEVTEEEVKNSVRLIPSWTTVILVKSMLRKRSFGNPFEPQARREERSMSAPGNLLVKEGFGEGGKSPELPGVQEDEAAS

Set 1
Target: XBP1, bZIP domain (human)
Technique: DHFR protein complementation
Sample: yeast
Setting: single substitutions, most at no-binding floor
Baseline: wild-type JUN-FOS pair
Reading: higher = stronger binding
Measurement: binding fitness
Starting sequence: JUN, bZIP domain (human); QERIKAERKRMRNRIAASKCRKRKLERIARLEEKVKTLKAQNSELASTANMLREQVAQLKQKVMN; partner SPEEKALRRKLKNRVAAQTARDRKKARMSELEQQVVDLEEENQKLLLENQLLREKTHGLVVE
E33I: -1.46 natural log
K39F: -1.38 natural log
V56P: -1.5 natural log
I28K: -1.26 natural log
R53F: -1.28 natural log
R30E: -0.0629 natural log
A49G: -0.596 natural log
N42V: -1.33 natural log

Set 2
SMILES: N#CC(c1ccnc(NCCc2cccnc2)n1)c1nc2ccccc2s1 (stereo not drawn)
Read-out: enzyme activity
Mode: inhibitor
Concentration: 0.5 µM
Baseline: control
Measurement: remaining activity
CAMKK2 (Homo sapiens, UniProt Q96RR4): 80.4%
STK10 (Homo sapiens, UniProt O94804): 86.3%
Protein kinase C beta type, isoform beta-I (PRKCB, Homo sapiens, UniProt P05771): 90.8%
Cyclin-dependent kinase 4, with cyclin D1 (CDK4, Homo sapiens, UniProt P11802): 90.4%
TGFBR1 (Homo sapiens, UniProt P36897): 97.8%
MAP3K3 (Homo sapiens, UniProt Q99759): 94.7%
IKBKE (Homo sapiens, UniProt Q14164): 90.3%
OXSR1 (Homo sapiens, UniProt O95747): 99%
Cyclin-dependent kinase 5, with p25 (CDK5, Homo sapiens, UniProt Q00535): 90%
Tyrosine-protein kinase Lyn, isoform B (LYN, Homo sapiens, UniProt P07948): 96.2%
CHEK2 (Homo sapiens, UniProt O96017): 93.9%
STK11 (Homo sapiens, UniProt Q15831): 79.4%
cGMP-dependent protein kinase 1, isoform beta (PRKG1, Homo sapiens, UniProt Q13976): 99.4%
PRKACA (Homo sapiens, UniProt P17612): 103%
GRK3 (Homo sapiens, UniProt P35626): 99.1%
TGFBR2 (Homo sapiens, UniProt P37173): 102%
STK39 (Homo sapiens, UniProt Q9UEW8): 96.9%
DAPK1 (Homo sapiens, UniProt P53355): 99.3%
MAPK9 (Homo sapiens, UniProt P45984): 67.5%
DAPK2 (Homo sapiens, UniProt Q9UIK4): 119%
CAMK2D (Homo sapiens, UniProt Q13557): 89.3%
PRKCA (Homo sapiens, UniProt P17252): 94.3%

Set 3
Target: CCNB3, cyclin fold, Cln2 fusion (human)
Technique: yeast growth competition, sequencing
Sample: yeast
Setting: weak parent motif
Baseline: not given
Reading: higher = stronger binding
Measurement: normalised enrichment score
Starting sequence: CDC25A docking peptide (human); PPHRRRLLFACSP
P2T: 0.447
P2L: 0.133
R6F: -0.135
R4H: -0.21
R4Y: -0.0958
A10H: 0.101
P13R: -0.0632
P13F: 0.0368

Set 4
Compound: CCc1ccccc1C(=O)Nc1n[nH]c2c(C)c(F)c(C3C(C#N)=C(C)N(C)C(C)=C3C#N)cc12
Read-out: cell-free assay
Technique: competition with immobilised ligand
Concentration: 1 µM
Measurement: remaining binding
IRAK1 (Homo sapiens, UniProt P51617): 100%
MAP3K13 (Homo sapiens, UniProt O43283): 100%
Ribosomal protein S6 kinase alpha-1, N-terminal kinase domain (RPS6KA1, Homo sapiens, UniProt Q15418): 1.8%
Ribosomal protein S6 kinase alpha-1, C-terminal kinase domain (RPS6KA1, Homo sapiens, UniProt Q15418): 100%
TSSK1B (Homo sapiens, UniProt Q9BXA7): 95%
HUNK (Homo sapiens, UniProt P57058): 100%
TBK1 (Homo sapiens, UniProt Q9UHD2): 77%
EGFR (Homo sapiens, UniProt P00533): 85%
NTRK1 (Homo sapiens, UniProt P04629): 97%
GRK3 (Homo sapiens, UniProt P35626): 100%
PHKG1 (Homo sapiens, UniProt Q16816): 44%
ROS1 (Homo sapiens, UniProt P08922): 98%
PIK3CA (Homo sapiens, UniProt P42336): 100%
STK26 (Homo sapiens, UniProt Q9P289): 98%
CAMKK1 (Homo sapiens, UniProt Q8N5S9): 100%
GRK4 (Homo sapiens, UniProt P32298): 100%

Repeated from above (set 3):
P2T: 0.447
P2L: 0.133
R6F: -0.135
R4H: -0.21
